Experimental data of several laboratories.
Every numbered part comes from another study and shows a few of its results, in no order.

Set 1
Target: Interferon regulatory factor 3, full length, phosphomimetic (IRF3, Homo sapiens, UniProt Q14653, residues 1-427, S386D/S396D/S398D/S402D/T404D/S405D)
Method: protein-binding microarray
Form: double-stranded DNA, one strand shown
Matrix: in vitro
Concentration: 2540 nM top
Setting: 60-bp whole probe
Added: salmon DNA 0.4 mg/ml
Reference: random background probes
Reading: higher = stronger binding
All sequences stand within: GCCTAGCAC … GTCTTGATTCGCTTGACGCTGCTG
Residues (chain): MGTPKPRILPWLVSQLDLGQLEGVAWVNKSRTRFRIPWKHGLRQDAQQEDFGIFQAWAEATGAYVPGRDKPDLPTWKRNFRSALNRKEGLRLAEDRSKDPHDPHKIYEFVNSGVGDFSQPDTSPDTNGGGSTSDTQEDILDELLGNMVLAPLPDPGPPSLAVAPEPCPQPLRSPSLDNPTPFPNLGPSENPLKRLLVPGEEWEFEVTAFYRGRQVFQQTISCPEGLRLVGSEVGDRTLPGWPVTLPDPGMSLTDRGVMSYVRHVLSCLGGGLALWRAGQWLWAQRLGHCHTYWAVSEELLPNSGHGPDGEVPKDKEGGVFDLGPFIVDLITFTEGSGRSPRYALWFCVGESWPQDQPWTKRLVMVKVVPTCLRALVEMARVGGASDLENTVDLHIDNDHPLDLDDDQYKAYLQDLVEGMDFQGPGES
`TTAGGCATCGGGTTTCGGTTAGTGCTA` — result for “fitted relative affinity”: 2.1 z-score.
Under “fitted relative affinity”, `GACGGTTTCGGTAACGGGACGTGCTAG` is recorded as 5.64 z-score.
For `TTGCTTTCCTTCTTGAACTCGTGCTAG`, “fitted relative affinity” read 8.42 z-score.
Under “fitted relative affinity”, `GACGGAGTGGGGTTTCGGGACGTGCTA` is recorded as 0.658 z-score.
Under “fitted relative affinity”, `TGAGGACTGGGTTTCGGTTAGTGCTAG` is recorded as 2.82 z-score.
`TTAGGTATGGGTATCGGTTAGTGCTAG`: “fitted relative affinity” 0.587 z-score.
`GTAGATTTCAGACTGGATTAGTGCTAG`: “fitted relative affinity” 0.865 z-score.
For `GAAGGACTGCTACTGCTGACGTGCTAG`, “fitted relative affinity” read -0.876 z-score.
For `GACGGTTTCGGTCTAGGGACGTGCTAG`, “fitted relative affinity” read 6.94 z-score.
For `TTAGGTATCGGACTGGGTTAGTGCTAG`, “fitted relative affinity” read 1.19 z-score.
`GACGGTATCCTTTTCCTGATGTGCTAG`: “fitted relative affinity” 6.95 z-score.

Set 2
Target: Sal-like protein 4, full length isoform B (SALL4, Homo sapiens, UniProt Q9UJQ4-2, residues 1-616)
Method: universal PBM
Form: double-stranded DNA, one strand shown
Matrix: in vitro
Concentration: not given
Setting: 8-mer, flanks averaged, mean of replicates
Reading: higher = stronger binding
For `AGACCCGA`, the E-score was -0.185.
`AGGCGCCC` gave an E-score of -0.328.
`ACTGAACC` gave an E-score of -0.148.
For `ACTTCCGG`, the E-score was -0.124.
`CGAGCGCA` has an E-score of -0.0635.
For `GACGCGAC`, the E-score was -0.315.

Set 3
Target: RING finger protein unkempt homolog, zinc fingers 1-6, GST-SBP tag (UNK, Homo sapiens, UniProt Q9C0B0, residues 30-357)
Method: RNA Bind-n-Seq
Form: RNA
Matrix: in vitro
Concentration: not given
Setting: RNA with constant flanks, human and mouse sites, ends assumed
Reference: input RNA pool
Reading: higher = stronger binding
All sequences stand within: GGGAGUUCUACAGUCCGACGAUC … CAACAGAGGAUUGAGCAUCA
Target sequence (chain): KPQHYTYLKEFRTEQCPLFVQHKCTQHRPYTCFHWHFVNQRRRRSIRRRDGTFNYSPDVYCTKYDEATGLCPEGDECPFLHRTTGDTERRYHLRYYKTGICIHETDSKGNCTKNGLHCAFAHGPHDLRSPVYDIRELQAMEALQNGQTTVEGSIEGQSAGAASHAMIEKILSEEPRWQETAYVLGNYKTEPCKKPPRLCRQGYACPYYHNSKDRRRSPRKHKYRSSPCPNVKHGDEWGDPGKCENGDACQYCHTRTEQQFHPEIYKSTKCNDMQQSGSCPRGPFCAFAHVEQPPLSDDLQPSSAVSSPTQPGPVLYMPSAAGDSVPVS
For `UGGCUUAAUCAAAUCAUGCCUAAGAAAGACCCUGUGAAAAUUGUCCGAUGCCAUGAACACAUAGAAAUCCUUACAGUAAAUGGAGAAUUACUGUUUUUUAGACAAAGAGAAGGGCCUUUU`, the bound/input enrichment was 0.942 ratio.
With `CGCGAACGCGAGCCCCGCCCUGCGCGCCUUCCCUCCUGCGCUCGCCGGCCUCUUCUGCCUCUUAGAACCUUCCUGCGGUCGUGCUUGCAUCUCGCUGCUGCAGCCUCCCGGGCUCCGGUC` the bound/input enrichment was 0.221 ratio.
The bound/input enrichment of `ACAAACCAGACUUUUAUAUUUUAAUUUUACAGAUUUUACUACAUGAUUUUUCUAAAUUACUAUGUCAGGUUGUAAAAGUCAGUGCAAUAACAAACCUUCCUUUUUAAGAAGAAAAUUGUU` is reported as 0.542 ratio.
The bound/input enrichment of `GAACCUUUAAUAUGUCCCCUUUGUAGAUCUAAGUGGAGAUCUCAUGAUUUCUACAGCCACGAGUUGUCAAGUCCUGUGGAUUCCCCUUCUUCCCUCAGAGCUGCACAGCAGCAAACCGUA` is reported as 0.587 ratio.
For `CUGGACUUGGAUGACCACGGCGGCAGAACCUUUCUCCGUGUCCUGCUCCACUUGACGAUGCAUGACUACCCACCCCUGGUGUCAGGGGCCCUGCAGCUCCUCUUCCGGCACUUCAGCCAG`, the bound/input enrichment was 0.0596 ratio.
The bound/input enrichment of `AAUUCACAGGAAGUGAGAUUCGUGUGAGGGAUGACAAGAUGCCUUUGGCGCACCUUGCAAUAGCUGUUGAAGCUGUUGGUUGGGCACAUCCAGAUACAAUCUGUCUCAUGGUUGCAAACA` is reported as 0.116 ratio.
For `UUGGCCAGUCAGUAUUCAGUUAAUGAAAUGUAUGCCGAAGCACUUAACACUUAUCAAGUUAUAGUCAAAAAUAAGAUGUUUAGCAAUGCAGGAAUAUUGAAAAUGAAUAUGGGAAAUAUC`, the bound/input enrichment was 0.4 ratio.
For `GCAGAAUAUGAGGAGAGUGUGGCCAAAGAAGACCAACCAGCAGUUCCAGGAGAGACUCAAGGUGACAGUUACUUUACUGGAAAGAAAACUAUUGAAACAGUGAAAGCAGCUGAGAGGAUU`, the bound/input enrichment was 0.326 ratio.
`ACGGUCCCUCCCUGUCUCCUCACCCUGCUGCCAUGGGAGGCCACCGAGGCUCGUUCACCACUGUAUGUCCAGGAAAAACACCCUCCUCCCCUGCCCUAUGGCUUGCAAAGCCAUUACUGG` gave a bound/input enrichment of 0.128 ratio.

Single results of other studies
With `PhoQ, residues 284 288 289 292 302 303 SACGEM` the fold induction was 15.6 (PhoP, residues 12 14 15 18 19 GQALL (Escherichia coli, UniProt P23836); Sort-seq, measured: YFP reporter; E. coli; PhoQ-PhoP variant library, added: 10 µM Mg2+; reference: high Mg2+ state, higher = stronger signaling).
